{"data": "Published values from different studies", "note": "Lines come from different studies, so protocols differ. Values joined by “and” are separate records of one study, mostly repeats; a detail may differ. Numbers after ± are the reported error."}
{"SMILES": "Cc1cnc(NC2CCOCC2)nc1-n1cnc(C(=O)NC(CN)c2cc(F)cc(Cl)c2)c1 (stereo not shown)", "cell line": "Rec1", "test": "flow cytometry", "conditions": "1 µM, 72 h", "endpoint": "S phase cells", "value": "15.1%"}
{"SMILES": "CC/C(=N\\NC(=O)NCc1cccc(O)c1)c1ccc(O)c(C)c1O", "cell line": "SK-OV-3", "test": "Western blot", "conditions": "10 µM, 1 h, 3D gellan gum culture, unit not given", "scale": "baseline: DMSO", "endpoint": "TAZ band intensity", "value": "0.18 ± 0.04"}
{"SMILES": "CC(C)NCC(O)c1ccc(O)c(O)c1 (stereo not shown)", "cell line": "mouse ventricular cardiomyocytes", "conditions": "dose not given, 0.387 s", "endpoint": "sarcomere length", "value": "1.8 µm"}
{"SMILES": "Cn1cc(-c2ccc(-c3cncc(Cl)c3N3CCC4(CCNC4=O)CC3)cc2)cn1", "cell line": "COLO 205", "test": "gene expression, microarray, item: LAMA3 mRNA", "conditions": "concentration not given, 2 h", "scale": "baseline: untreated cells", "endpoint": "log2 fold change", "value": 1.82}
{"SMILES": "CCn1cc(-c2cc(Cn3ccoc3=N)cc3c2CCN([C@@H](C)c2cc(OC)ccn2)C3=O)c(C(F)(F)F)n1", "cell line": "SU-DHL10", "test": "cell growth, inhibitor", "conditions": "120 h", "endpoint": "EC50", "value": "0.388 µM"}
{"SMILES": "Cc1cccc(-c2[nH]c(CNc3ccccc3F)nc2-c2ccc3ncnn3c2)n1", "cell line": "CD8+ T cells from myeloma patient", "test": "ELISA", "test system": "human", "conditions": "1 µM, 192 h", "endpoint": "IFN-gamma production", "value": "1.45% and 1.23% and 1.35% and 1.56% and 1.58% and 1.08%"}
{"SMILES": "COc1cnc2cccc(N3CCc4c(cc(Cn5ccnc5C)cc4-c4cn(C)nc4C(F)(F)F)C3=O)c2c1", "cell line": "Rec1", "test": "cell growth, inhibitor", "conditions": "120 h", "endpoint": "EC50", "value": "9.7 µM"}
{"SMILES": "COc1nc(NCc2cn(-c3ccc(C(=O)Nc4ccc(C(F)(F)F)cc4)cc3)nn2)nc(OC)n1", "cell line": "HCT-116", "test": "flow cytometry", "conditions": "IC50, 24 h", "endpoint": "cell cycle phase %G0-G1", "value": "53.6%"}
{"SMILES": "CCn1cc(-c2cc(Cn3ccnc3)cc3c2CCN([C@H](c2cc(OC)ccn2)C2CC2)C3=O)c(C(F)(F)F)n1", "cell line": "TEN", "test": "cell growth", "conditions": "120 h", "endpoint": "EC50", "value": "23.1 µM"}
{"SMILES": "O=C(/C=C/C=C/C=C/C1CCCCC1)NC1=C[C@@](O)(/C=C/C=C/C=C/C(=O)NC2=C(O)CCC2=O)[C@@H]2O[C@@H]2C1=O", "cell line": "ASPC1", "test": "cell growth, CellTiter-Glo", "conditions": "78 h", "endpoint": "GI50", "value": "21.7 µM"}
{"note": "Repeated from above:"}
{"SMILES": "CC/C(=N\\NC(=O)NCc1cccc(O)c1)c1ccc(O)c(C)c1O", "cell line": "SK-OV-3", "test": "Western blot", "conditions": "10 µM, 1 h, 3D gellan gum culture, unit not given", "scale": "baseline: DMSO", "endpoint": "TAZ band intensity", "value": "0.18 ± 0.04"}
